Measurements pooled from the literature.
Lines come from different studies, so protocols differ. ± marks the error that the study gave.

Compound	cell line	observed	method	time	notes	IC50
CC1=CC2(C)C(=C(C)C3C4CC(C)CC(C)C4C4Oc5ccc(cc5)CC5(O)NC(=O)C(=C(O)C2C43)C5Nc2ncnc3c2ncn3C2OC(CO)C(O)C2O)C1C (stereo not shown)	MDA-MB-231	cell growth or viability	ATP luminescence	2 h	–	45.4 µM
C[C@@H]1CCC2[C@]34OO[C@](C)(CC[C@@H]13)O[C@H]4OC[C@]2(C)O (stereo partly shown)	CEM/ADR5000 (multidrug-resistant)	cell viability	XTT	–	10% fetal calf serum	90 ± 4.57 µM
CCCCn1cc(C(=O)O)c(=O)c2cc(F)c(N)c([N+](=O)[O-])c21	HCT-116	cell growth	SRB	72 h	–	133 ± 6.67 µg/mL
C[C@H]1C(O)O[C@@H]2O[C@@]3(C)CC[C@H]4[C@H](C)CCC1[C@@]24OO3 (stereo partly shown)	CEM/ADR5000 (multidrug-resistant)	cell viability	XTT	–	10% fetal calf serum	1.84 ± 0.31 µM
CCCCCCCC(=O)Oc1c(C)c(OC)c2c(c1C)OC(=O)[C@@H](CCCCCC)[C@]2(O)/C=C/c1ccccc1 (racemic)	CL normal liver cells	cytotoxicity	sulforhodamine B	72 h	–	35.9 µM
Cc1[nH][n+]([Pd-2]([Br])([Br])[n+]2[nH]c(C)c(CSCc3ccccc3)c2C)c(C)c1CSCc1ccccc1	U-937	cytotoxicity	7-AAD flow cytometry	24 h	–	0.71 ± 0.04 µM
C[C@@H]1O[C@@H](OC(=O)/C=C/c2ccc(O)c(O)c2)[C@H](OC(=O)/C=C/c2ccc(O)c(O)c2)[C@H](O)[C@H]1O	MCF-10A	cytotoxicity	MTT	48 h	–	25.8 ± 1.28 µM
COc1c(C)c(OS(=O)(=O)c2ccccc2)c(C)c(O)c1C(=O)/C=C/c1ccccc1	CL normal liver cells	cytotoxicity	sulforhodamine B	72 h	–	29 µM
COc1ccc(C2=NN(C3=NC(=O)C(=Cc4ccc(O)cc4)S3)C(c3ccc(F)cc3)C2)cc1 (stereo not shown)	MCF-10A	cell growth or viability	–	–	–	55 µM
N.N.O=C(CCCc1ccccc1)[O][Pt]([Cl])([Cl])[O]C(=O)CCCc1ccccc1	HCT-116 p53+/+	cytotoxicity	–	72 h	–	0.22 ± 0.03 µM
CC1=[N+]2N=C(c3ccccc3)[O][Pd-2]2([Cl])[O+]=C2Oc3ccccc3C=C21 (stereo not shown)	WI-38	cytotoxicity	MTT	48 h	–	45.2 ± 2.7 µM
C[C@H]1C(NCCS)O[C@@H]2O[C@@]3(C)CC[C@H]4[C@H](C)CCC1[C@@]24OO3 (stereo partly shown)	CEM/ADR5000 (multidrug-resistant)	cell viability	XTT	–	10% fetal calf serum	3.34 ± 0.64 µM
Cc1[nH][n+]([Pd-2]([Cl])([Cl])[n+]2[nH]c(C)c(CSCc3ccccc3)c2C)c(C)c1CSCc1ccccc1	U-937	cytotoxicity	7-AAD flow cytometry	24 h	–	0.6 ± 0.04 µM
Cc1ccc(C2=NN(C3=NC(=O)C(=Cc4ccc(O)cc4)S3)C(c3ccc(F)cc3)C2)cc1 (stereo not shown)	MCF-10A	cell growth or viability	–	–	–	48.2 µM
CCCC(=O)Oc1c(C)c(OC)c2c(/C=C/c3ccccc3)c(CC)c(=O)oc2c1C	CL normal liver cells	cytotoxicity	sulforhodamine B	72 h	–	> 50 µM
O=C(/C=C/c1ccccc1)Oc1ccc2c(c1)O/C(=C\C=C\c1ccccc1)C2=O	LO2	cytotoxicity	MTT	72 h	–	25.1 µM

Excerpt of the above:
Compound	cell line	observed	method	time	notes	IC50
C[C@@H]1CCC2[C@]34OO[C@](C)(CC[C@@H]13)O[C@H]4OC[C@]2(C)O (stereo partly shown)	CEM/ADR5000 (multidrug-resistant)	cell viability	XTT	–	10% fetal calf serum	90 ± 4.57 µM
C[C@H]1C(NCCS)O[C@@H]2O[C@@]3(C)CC[C@H]4[C@H](C)CCC1[C@@]24OO3 (stereo partly shown)	CEM/ADR5000 (multidrug-resistant)	cell viability	XTT	–	10% fetal calf serum	3.34 ± 0.64 µM
